Published values pooled from the literature.
Each line is one published result; not all experiments were run side by side. Several values in a cell are separate wells, animals, samples, runs or records. ± gives the spread as reported.

SMILES | tested on | test | system | conditions | how to read | measurement | value
CC(C)(O)c1ncc([S@](N)(=O)=NC(=O)Nc2c3c(cc4c2CCC4)CCC3)s1 | – | item: Vascular disorders | healthy human volunteers | oral, dose not given, 14 days, multiple dose, all active arms | – | subjects with adverse events | 13%
CCCCN1C(=O)c2cccc3c(NCCCCCCCCCCN4CCOCC4)ccc(c23)C1=O | – | – | toluene | – | – | Stokes shift | 84 nm
O=C(N/N=C/c1ccc(C[n+]2ccccc2)cc1)c1cc(C(=O)N/N=C/c2ccc(C[n+]3ccccc3)cc2)ncn1 | hp2 hairpin duplex DNA | FRET melting | – | 1 µM, added: ds26 10 µM | – | ΔTm | 0.3 ± 0.1 °C
O=C(Nc1cnccc1-c1ccc([18F])cc1)c1ccnc(NC(=O)C2CC2)c1 | – | – | FVB/NJ mice (both sexes), cortex | intravenous, dose not given, 120 min | – | SUV | 0.05
C=C(NC(=O)c1csc(-c2nc3c(cc2O)-c2nc(cs2)C(=O)NC(C(C)O)C(=O)NC(=C(C)OC)c2nc(cs2)C(=O)NC2c4nc(cs4)C(=O)NC(COC(=O)c4c5c6c(cccc6n4O)COC(=O)C(OC4CC(C)(O)C(N(C)C)C(C)O4)C2OC5)c2nc-3cs2)n1)C(N)=O (stereo not drawn) | – | – | cynomolgus monkey, both sexes, plasma | intravenous infusion, 1 mg/kg single dose | – | volume of distribution | 0.932 L/kg
C=CC(=O)Nc1cc(Nc2nccc(-c3cn(C)c4ccccc34)n2)c(OC)cc1N(C)CCNC | – | storage stability | human plasma | 72 h, on ice, low QC level | – | recovery | 71.3%
C=CC(=O)Nc1cccc(Cn2ncc3cnc(Nc4cnn(CCOC)c4)nc32)c1 | – | – | mouse, CD-1, both sexes, whole blood | 5 µM, 30 min | – | remaining compound | 71.2%
CC(C(=O)O)n1nc(Cn2cc3cc(OCC[18F])c(Cl)cc3n2)c2ccccc2c1=O (racemic) | – | – | rat, spleen | 5 min | – | tracer uptake | 0.14 %ID/g
Oc1ccc(Nc2ncnc3[nH]c(/C=C/c4ccccc4)nc23)cc1 | – | HPLC | solution, dark | before light exposure | – | purity | 99.4%
C[n+]1cccc2cc(/C=N/NC(=O)c3cccc(C(=O)N/N=C/c4ccc5c(ccc[n+]5C)c4)c3)ccc21 | hp2 hairpin duplex DNA | FRET melting | – | 1 µM, added: ds26 10 µM | – | ΔTm | 0.5 ± 0.1 °C
O=C(Nc1cnccc1-c1ccc([18F])nc1)c1ccnc(NC(=O)C2CC2)c1 | – | – | mice, transgenic, GSK-3β, early-stage, lung | intravenous, dose not given, 120 min, added: tariquidar 15 mg/kg i.v. pre-dose | – | SUV | 0.178
CCCCCCCC(=O)OC[C@H](NC(=O)[C@H](CO)NC(=O)CN)C(=O)N[C@@H](Cc1ccccc1)C(=O)N[C@@H](CC(C)C)C(=O)N[C@@H](CO)C(=O)N1CCC[C@H]1C(=O)N[C@@H](CCC(=O)O)C(=O)N[C@@H](Cc1cnc[nH]1)C(=O)N[C@@H](CCC(N)=O)C(=O)N[C@@H](CCCNC(=N)N)C(=O)N[C@H](C(=O)N[C@@H](CCC(N)=O)C(=O)N[C@@H](CCC(N)=O)C(=O)N[C@@H](CCCNC(=N)N)C(=O)N[C@@H](CCCCN)C(=O)N[C@@H](CCC(=O)O)C(=O)N[C@@H](CO)C(=O)N[C@@H](CCCCN)C(=O)N[C@@H](CCCCN)C(=O)N1CCC[C@H]1C(=O)N1CCC[C@H]1C(=O)N[C@@H](C)C(=O)N[C@@H](CCCCN)C(=O)N[C@@H](CC(C)C)C(=O)N[C@@H](CCC(N)=O)C(=O)N1CCC[C@H]1C(=O)N[C@@H](CCCNC(=N)N)C(=O)O)C(C)C | – | manual cuff, item: mBP | human, chronic HFrEF patients | intravenous infusion, 0.1 µg/kg/min over 120 min, follow-up day 2-5, median | – | blood pressure | 83 mm Hg
CNc1cc(N)c(C(N)=O)c[n+]1C | – | substrate, item: methylated product | rats, plasma | oral, 30 mg/kg, 0.25 h | – | plasma concentration of product | 102 nM and 108 nM
C=CS(=O)(=O)Oc1ccc(OC)c(-c2c[nH]c3ncc(-c4cncc(C(=O)N(C)C)c4)cc23)c1 | – | HPLC | acetonitrile/water/DMSO | 50 µM, 37 °C, DIPEA 20 eq, added: N-α-acetyl-lysine | – | reactivity half-life | ~0.25 h
Cc1cc(-c2ccc(C(=O)[C@@H]3CCCC[C@H]3C(=O)Nc3cnn4c3C(=O)NCC4)cc2)[nH]n1 | – | – | human, urine | oral, 200 mg, 0-96 h | reference: dose | cumulative recovery of radioactivity | 5.85%
COc1cc(-c2nc3ccccc3s2)cc(CN2CCNCCN(Cc3cc(-c4nc5ccccc5s4)cc(OC)c3O)CC2)c1O | – | UV-vis spectrophotometric titration | aqueous NaCl 0.1 M | 20 µM, 25 °C, pH 3 to 11 | – | pKa3 | 6.98
COc1cc2ncnc(Oc3ccc(Nc4nccc5[nH]cc(-c6ccc(F)cc6)c(=O)c45)cc3F)c2cc1OC | – | – | male cynomolgus monkey, plasma | oral, 3 mg/kg | – | Tmax | 4 h
O=C([O-])CN1CCN(CC(=O)[O-])CCN(C(CO)C(O)CO)CCN(CC(=O)[O-])CC1.[Dy+3] (stereo not drawn) | – | – | cynomolgus monkey, skin | dose not given, day 58, PK group | – | lanthanide tissue concentration | 0.034 ± 0.015 nmol/g

SMILES | tested on | test | system | conditions | how to read | measurement | value
CCCCN1C(=O)c2cccc3c(NCCCCCCCCN4CCOCC4)ccc(c23)C1=O | – | – | dioxane | – | – | Stokes shift | 88 nm
COc1ccc(CNc2ccc3c(c2)S(=O)(=O)C=C3)cc1 | – | – | PBS | 50 µM, 24 h, pH 7.4, 37 °C, added: equimolar thiol | – | conversion to thiol conjugate | 30 to 40%
CN1CCN(S(=O)(=O)c2ccc(-c3ccc4ncnc(Nc5ccc(OCc6ccccc6)cc5)c4c3)cc2)CC1 | Leishmania major | intracellular amastigote growth, luciferase | RAW264.7 macrophages | – | – | EC50 | 1900 nM
O=C1c2sc(-c3ccc(N4CCC(F)C4)nc3F)nc2CCN1c1cccnc1 (stereo not drawn) | – | – | CD1 mouse, plasma | i.v., dose not given, 0.5 h | – | concentration | 86.4 ng/mL and 109 ng/mL and 101 ng/mL
OCC1OC(n2cnc3c(NCc4ccc(Br)s4)ncnc32)C(O)C1O (stereo not drawn) | – | equilibrium dialysis | dog plasma | 0.5 µg/mL, 4 h, pH 7.4 | – | fraction unbound | 0.137
CC(C)Cc1ccc(C(C)C(=O)N[C@@H](CCCCNC(=O)CCOCCOCCOCCOCCOCCOCCNC(=O)CN2CCN(CC(=O)[O-])CCN(CC(=O)[O-])CCN(CC(=O)[O-])CC2)C(=O)Nc2cccc3c(C(=O)NCC(=O)N4CC(F)(F)C[C@H]4C#N)ccnc23)cc1.[177Lu+3] (stereo partly drawn) | – | – | human serum | 1 h, 37 °C, 177Lu-labelled | – | radiochemical stability | 99.1 ± 1%
[11CH3]N1CCC(NC(=O)c2cc(-c3c(O)cc(O)cc3Oc3ccc([N+](=O)[O-])cc3)on2)CC1 | – | – | healthy female Wistar rats, blood | intravenous, 30 min | – | standardized uptake value | 0.8 ± 0.2 g/mL
CN1CCN(S(=O)(=O)c2ccc(-c3ccc4ncnc(Nc5ccc(OCc6ccccc6)c(Cl)c5)c4c3)cc2)CC1 | Leishmania major | intracellular amastigote growth, luciferase | RAW264.7 macrophages | – | – | EC50 | 2200 nM
COc1cccc(OC)c1-c1cc(C(=O)NC2(C(=O)O)C3CC4CC(C3)CC2C4)nn1-c1ccc(C(=O)N(C)CCOCCOCCN(C)C(=O)[C@H](CCCCNC(=O)[C@H](CC(C)C)NC(=O)C2OC2C(=O)O)NC(=O)CN2CCN(CC(=O)[O-])CCN(CC(=O)[O-])CCN(CC(=O)[O-])CC2)cc1C(C)C.[177Lu+3] (mixture of isomers) | – | – | mouse HT-29 xenograft | 4 h, biodistribution | reference: tumour over stomach | tumour-to-stomach ratio | 5.59
CNCc1ccc(-c2cc(=O)c3ccc4[nH]c(C(F)(F)F)nc4c3o2)cc1 | – | – | ICR mice, plasma | oral, 5 mg/kg | – | clearance | 223 mL/min/kg
N#C[C@@H]1CC(F)(F)CN1C(=O)CNC(=O)c1ccnc2c(NC(=O)C(N)CCCCNC(=O)CCOCCOCCOCCOCCOCCOCCNC(=O)CN3CCN(CC(=O)[O-])CCN(CC(=O)[O-])CCN(CC(=O)[O-])CC3)cccc12.[68Ga+3] (stereo partly drawn) | – | – | human serum | 60 min, 37 °C, 68Ga-labelled | – | radiochemical stability | 99.08 ± 0.2%
CCCCN1C(=O)c2cccc3c(NCCN4CCOCC4)ccc(c23)C1=O | – | – | dioxane | – | – | Stokes shift | 82 nm
CCC1CNC(CC)CN(C(C(=O)[O-])c2ccc(C(=O)[O-])cc2)C(CC)CN(CC(=O)[O-])C(CC)CN1.[Mn+2] (stereo not drawn) | – | ICP-MS | BALB/c mice, kidney | intravenous, 0.05 mmol/kg, 1440 min | reference: injected dose | Mn uptake | 1.4 ± 0.06%
COC(=O)c1ccccc1-c1c2ccc(=[N+](C)C)cc-2oc2c1ccc1cccc(O)c12 | – | – | 12.5 mM aqueous NaOH | pH 12.1, 10% DMSO | – | Stokes shift | 148 nm
CN(O)C(=O)CCC(=O)NCCCN(CCCCN(CCCNC(=O)CCC(=O)N(C)O)C(=O)CCC(=O)N(C)O)C(=O)CCC(=O)N(C)O.[89Zr] | – | radio-TLC | aqueous buffer | 7 d, pH 7.2, 37 °C, 89Zr-labelled complex, added: CaCl2 10-fold excess | – | intact complex | 98.9 ± 1%
CC(=O)N[C@@H](CCCCN)C(=O)N1CCC[C@H]1C(=O)N[C@H](C(=O)N[C@@H](Cc1ccccc1)C(=O)N[C@@H](CCC(N)=O)C(=O)N[C@@H](Cc1ccccc1)C(=O)N[C@@H](CC(C)C)C(=O)N[C@@H](Cc1ccccc1)C(=O)N[C@@H](Cc1c[nH]cn1)C(=O)N[C@@H](CCC(=O)O)C(N)=O)C(C)C | – | AFM | hydrogel | pH 7.4 | – | nanofiber diameter | 8.9 ± 0.8 nm
CCCCN1C(=O)c2cccc3c(NCCCN4CCOCC4)ccc(c23)C1=O | – | – | acetonitrile | – | – | Stokes shift | 86 nm
CC1(C)C(NC(=O)C(=NOC2(C(=O)O)CC2)c2csc(N)n2)C(=O)N1OS(=O)(=O)O (stereo not drawn) | – | – | Sprague-Dawley rat, plasma | intravenous, 10 mg/kg | – | clearance | 8.11 ± 1.35 mL/min/kg

Excerpt of the above:
SMILES | tested on | test | system | conditions | how to read | measurement | value
CC1(C)C(NC(=O)C(=NOC2(C(=O)O)CC2)c2csc(N)n2)C(=O)N1OS(=O)(=O)O (stereo not drawn) | – | – | Sprague-Dawley rat, plasma | intravenous, 10 mg/kg | – | clearance | 8.11 ± 1.35 mL/min/kg
O=C(N/N=C/c1ccc(C[n+]2ccccc2)cc1)c1cc(C(=O)N/N=C/c2ccc(C[n+]3ccccc3)cc2)ncn1 | hp2 hairpin duplex DNA | FRET melting | – | 1 µM, added: ds26 10 µM | – | ΔTm | 0.3 ± 0.1 °C
[11CH3]N1CCC(NC(=O)c2cc(-c3c(O)cc(O)cc3Oc3ccc([N+](=O)[O-])cc3)on2)CC1 | – | – | healthy female Wistar rats, blood | intravenous, 30 min | – | standardized uptake value | 0.8 ± 0.2 g/mL
CNc1cc(N)c(C(N)=O)c[n+]1C | – | substrate, item: methylated product | rats, plasma | oral, 30 mg/kg, 0.25 h | – | plasma concentration of product | 102 nM and 108 nM
COc1ccc(CNc2ccc3c(c2)S(=O)(=O)C=C3)cc1 | – | – | PBS | 50 µM, 24 h, pH 7.4, 37 °C, added: equimolar thiol | – | conversion to thiol conjugate | 30 to 40%
